Measurements from different studies.
Parts stem from different laboratories: compare values within a part only.
UniProt P10721, sequence (whole entry, unmodified, looked up): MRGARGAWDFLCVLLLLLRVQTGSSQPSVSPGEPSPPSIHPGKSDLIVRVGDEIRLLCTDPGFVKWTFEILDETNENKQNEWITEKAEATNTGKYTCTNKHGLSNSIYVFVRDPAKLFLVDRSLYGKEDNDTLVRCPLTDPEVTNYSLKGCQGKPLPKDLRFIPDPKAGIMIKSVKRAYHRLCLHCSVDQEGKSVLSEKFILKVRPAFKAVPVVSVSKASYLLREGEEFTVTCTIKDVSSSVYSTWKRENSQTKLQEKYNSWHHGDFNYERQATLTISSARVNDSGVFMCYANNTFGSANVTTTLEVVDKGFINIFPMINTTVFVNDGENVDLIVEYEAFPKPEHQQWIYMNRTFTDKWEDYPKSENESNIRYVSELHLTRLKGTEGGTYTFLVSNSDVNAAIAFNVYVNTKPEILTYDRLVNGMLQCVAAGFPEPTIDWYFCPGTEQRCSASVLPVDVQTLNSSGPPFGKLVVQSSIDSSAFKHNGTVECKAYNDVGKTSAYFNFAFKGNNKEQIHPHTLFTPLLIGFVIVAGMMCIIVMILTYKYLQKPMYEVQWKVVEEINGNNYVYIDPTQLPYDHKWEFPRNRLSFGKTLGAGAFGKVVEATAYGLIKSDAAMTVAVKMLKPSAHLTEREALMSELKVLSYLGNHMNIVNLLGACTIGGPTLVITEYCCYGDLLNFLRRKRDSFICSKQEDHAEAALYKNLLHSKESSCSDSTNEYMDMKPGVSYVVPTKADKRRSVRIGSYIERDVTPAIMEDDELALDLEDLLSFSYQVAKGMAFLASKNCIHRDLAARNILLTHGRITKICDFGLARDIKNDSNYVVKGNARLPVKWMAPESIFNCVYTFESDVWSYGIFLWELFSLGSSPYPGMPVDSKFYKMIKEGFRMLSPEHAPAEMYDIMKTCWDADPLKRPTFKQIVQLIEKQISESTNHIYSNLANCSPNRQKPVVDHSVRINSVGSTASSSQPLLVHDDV
UniProt O76039, sequence (whole entry, looked up): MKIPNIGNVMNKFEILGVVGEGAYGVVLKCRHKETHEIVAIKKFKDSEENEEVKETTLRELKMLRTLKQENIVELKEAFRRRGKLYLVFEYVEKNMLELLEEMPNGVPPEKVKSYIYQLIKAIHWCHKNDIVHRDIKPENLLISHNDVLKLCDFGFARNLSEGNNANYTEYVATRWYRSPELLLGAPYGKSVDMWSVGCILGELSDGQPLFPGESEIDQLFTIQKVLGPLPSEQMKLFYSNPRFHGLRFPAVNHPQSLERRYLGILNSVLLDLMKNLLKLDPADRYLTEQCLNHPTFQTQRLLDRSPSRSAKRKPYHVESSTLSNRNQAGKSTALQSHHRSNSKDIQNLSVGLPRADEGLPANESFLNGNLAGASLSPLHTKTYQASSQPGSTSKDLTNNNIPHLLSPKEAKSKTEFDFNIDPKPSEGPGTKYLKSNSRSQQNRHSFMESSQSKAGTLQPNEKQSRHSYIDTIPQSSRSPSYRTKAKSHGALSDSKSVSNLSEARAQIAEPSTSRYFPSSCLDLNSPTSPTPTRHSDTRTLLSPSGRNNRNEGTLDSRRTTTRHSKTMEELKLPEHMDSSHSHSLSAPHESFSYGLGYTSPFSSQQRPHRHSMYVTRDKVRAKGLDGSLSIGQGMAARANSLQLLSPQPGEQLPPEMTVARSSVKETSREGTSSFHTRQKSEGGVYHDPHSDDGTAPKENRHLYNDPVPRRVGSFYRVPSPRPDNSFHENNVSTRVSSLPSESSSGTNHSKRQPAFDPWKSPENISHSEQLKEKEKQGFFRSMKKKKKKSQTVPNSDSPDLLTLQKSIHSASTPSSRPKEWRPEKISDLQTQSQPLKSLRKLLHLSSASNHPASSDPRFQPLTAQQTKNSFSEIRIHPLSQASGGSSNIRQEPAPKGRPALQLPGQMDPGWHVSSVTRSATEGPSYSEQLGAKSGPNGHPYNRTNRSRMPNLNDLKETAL
UniProt O14578, sequence (whole entry, looked up): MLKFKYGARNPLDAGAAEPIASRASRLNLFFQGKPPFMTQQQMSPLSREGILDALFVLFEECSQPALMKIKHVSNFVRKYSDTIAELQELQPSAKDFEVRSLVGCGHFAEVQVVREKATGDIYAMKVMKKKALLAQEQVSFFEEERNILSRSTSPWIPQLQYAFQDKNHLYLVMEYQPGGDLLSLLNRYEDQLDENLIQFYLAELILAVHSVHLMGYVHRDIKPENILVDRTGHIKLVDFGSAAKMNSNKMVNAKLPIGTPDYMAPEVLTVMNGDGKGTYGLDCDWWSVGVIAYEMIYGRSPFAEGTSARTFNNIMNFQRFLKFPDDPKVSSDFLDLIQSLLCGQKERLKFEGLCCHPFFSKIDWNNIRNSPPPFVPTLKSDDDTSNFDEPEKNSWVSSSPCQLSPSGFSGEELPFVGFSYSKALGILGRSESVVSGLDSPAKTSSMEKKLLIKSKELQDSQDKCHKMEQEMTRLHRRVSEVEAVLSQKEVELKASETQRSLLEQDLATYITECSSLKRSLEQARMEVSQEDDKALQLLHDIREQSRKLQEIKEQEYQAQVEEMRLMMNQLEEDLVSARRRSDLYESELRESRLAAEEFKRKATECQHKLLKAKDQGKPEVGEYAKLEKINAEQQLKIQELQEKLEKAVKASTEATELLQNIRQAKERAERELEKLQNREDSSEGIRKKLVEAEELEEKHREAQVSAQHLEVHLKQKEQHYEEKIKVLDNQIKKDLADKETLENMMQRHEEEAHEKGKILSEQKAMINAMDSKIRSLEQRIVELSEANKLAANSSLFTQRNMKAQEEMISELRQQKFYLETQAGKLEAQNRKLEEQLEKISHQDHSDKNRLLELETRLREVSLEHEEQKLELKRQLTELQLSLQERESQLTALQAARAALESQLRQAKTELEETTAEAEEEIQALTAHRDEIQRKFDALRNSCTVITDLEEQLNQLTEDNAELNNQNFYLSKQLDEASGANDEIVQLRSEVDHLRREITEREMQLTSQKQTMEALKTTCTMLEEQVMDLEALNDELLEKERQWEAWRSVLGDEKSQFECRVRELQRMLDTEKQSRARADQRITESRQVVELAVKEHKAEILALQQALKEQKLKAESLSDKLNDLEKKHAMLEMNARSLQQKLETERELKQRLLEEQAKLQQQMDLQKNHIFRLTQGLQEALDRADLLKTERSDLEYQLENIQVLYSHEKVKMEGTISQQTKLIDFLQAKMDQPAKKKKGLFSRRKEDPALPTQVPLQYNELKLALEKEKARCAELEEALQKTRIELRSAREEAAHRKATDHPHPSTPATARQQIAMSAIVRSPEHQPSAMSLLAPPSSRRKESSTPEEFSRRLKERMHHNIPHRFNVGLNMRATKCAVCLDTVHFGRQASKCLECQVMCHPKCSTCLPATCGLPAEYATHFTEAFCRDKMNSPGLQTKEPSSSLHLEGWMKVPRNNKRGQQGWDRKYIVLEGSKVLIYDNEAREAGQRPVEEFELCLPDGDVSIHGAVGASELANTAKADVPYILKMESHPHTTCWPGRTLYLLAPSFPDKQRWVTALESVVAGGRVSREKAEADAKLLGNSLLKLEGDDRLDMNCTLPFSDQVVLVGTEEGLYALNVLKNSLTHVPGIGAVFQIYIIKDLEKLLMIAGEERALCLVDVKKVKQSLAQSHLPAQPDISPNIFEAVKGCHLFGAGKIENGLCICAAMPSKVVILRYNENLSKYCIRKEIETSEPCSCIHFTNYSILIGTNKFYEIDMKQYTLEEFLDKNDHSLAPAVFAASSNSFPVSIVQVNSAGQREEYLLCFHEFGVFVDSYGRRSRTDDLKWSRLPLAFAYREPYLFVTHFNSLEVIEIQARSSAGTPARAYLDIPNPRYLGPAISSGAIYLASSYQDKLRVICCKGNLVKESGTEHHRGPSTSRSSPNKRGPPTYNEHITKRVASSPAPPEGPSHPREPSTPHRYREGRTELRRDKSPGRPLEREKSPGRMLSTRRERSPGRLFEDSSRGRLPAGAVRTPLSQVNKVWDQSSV

Set 1
Target: Bromodomain-containing protein 4, BD1 (BRD4, Homo sapiens, UniProt O60885)
Read-out: acetyl-histone H4 peptide binding
Method: AlphaScreen displacement
Concentration: 50 µM
For `O=c1ccc2ccc(O)c(O)c2o1`, the inhibition was 25.9%.
The inhibition of `O=C(CSc1ccc2nnc(-c3cccc(F)c3)n2n1)Nc1cccc(F)c1` is reported as 7.9%.
`CC(C)OC(=O)c1ccc(NC(=O)Nc2ccc(Cl)c(Cl)c2)cc1` gave an inhibition of 12%.
For `CCCNC(=O)Nc1ccc(Oc2ncnc3cc(OC)c(OC)cc23)cc1Cl`, the inhibition was 9.75%.
For `C[S+]([O-])c1ccc(CSc2nc(-c3ccc(F)cc3)c(-c3ccncc3)[nH]2)cc1` (stereo not drawn), the inhibition was 14.2%.
`CC(CCl)=C(C#N)c1nc2ccccc2s1` gave an inhibition of 21.6%.
`CC(C)CCN1c2nc(Nc3cc(F)c(O)c(F)c3)ncc2N(C)C(=O)C1C` (stereo not drawn) has an inhibition of 99.3%.
`COc1ccc(-c2nnc3ccc(SCC(=O)Nc4cc(C)on4)nn23)cc1OC` has an inhibition of 12.7%.

Set 2
SMILES: Nc1cnc(N2CCc3cc(S(=O)(=O)Nc4c(F)cc(Cl)cc4F)cc(N4CCCC4=O)c32)nc1
Read-out: cell-free assay
Method: competition with immobilised ligand
Concentration: 1 µM
For CDKL5 (Homo sapiens, UniProt O76039): remaining binding read 88%.
The remaining binding was 88% (PIK3CD (Homo sapiens, UniProt O00329)).
It gave 100% for remaining binding (TNIK (Homo sapiens, UniProt Q9UKE5)).
The remaining binding was 100% (SGK3 (Homo sapiens, UniProt Q96BR1)).
Tyrosine-protein kinase ABL1, non-phosphorylated (ABL1, Homo sapiens, UniProt P00519, H396P) — remaining binding: 94%.
It gave 100% for remaining binding (TNK1 (Homo sapiens, UniProt Q13470)).
The remaining binding was 100% (MAP3K11 (Homo sapiens, UniProt Q16584)).
CDKL1 (Homo sapiens, UniProt Q00532) — remaining binding: 85%.
It gave 100% for remaining binding (BMX (Homo sapiens, UniProt P51813)).
The remaining binding was 100% (KIT (Homo sapiens, UniProt P10721, T670I/V559D)).
CLK4 (Homo sapiens, UniProt Q9HAZ1) — remaining binding: 89%.
It gave 100% for remaining binding (EPHA5 (Homo sapiens, UniProt P54756)).
The remaining binding was 91% (MYLK (Homo sapiens, UniProt Q15746)).
For KIT (Homo sapiens, UniProt P10721, V559D/V654A): remaining binding read 100%.
The remaining binding was 83% (KIT (Homo sapiens, UniProt P10721, L576P)).
For NLK (Homo sapiens, UniProt Q9UBE8): remaining binding read 100%.
FGFR4 (Homo sapiens, UniProt P22455) — remaining binding: 100%.
It gave 91% for remaining binding (CIT (Homo sapiens, UniProt O14578)).
For HIPK1 (Homo sapiens, UniProt Q86Z02): remaining binding read 91%.

Set 3
SMILES: C=CCc1ccc(O)c(-c2ccc(O)c(CC=C)c2)c1
Read-out: chloride current
ANO1 del476-501/E649A/R541A: Anoctamin-1 (ANO1, Homo sapiens, UniProt Q5XXA6, del476-501/E649A/R541A)
UniProt Q5XXA6, sequence (whole entry, unmodified, looked up): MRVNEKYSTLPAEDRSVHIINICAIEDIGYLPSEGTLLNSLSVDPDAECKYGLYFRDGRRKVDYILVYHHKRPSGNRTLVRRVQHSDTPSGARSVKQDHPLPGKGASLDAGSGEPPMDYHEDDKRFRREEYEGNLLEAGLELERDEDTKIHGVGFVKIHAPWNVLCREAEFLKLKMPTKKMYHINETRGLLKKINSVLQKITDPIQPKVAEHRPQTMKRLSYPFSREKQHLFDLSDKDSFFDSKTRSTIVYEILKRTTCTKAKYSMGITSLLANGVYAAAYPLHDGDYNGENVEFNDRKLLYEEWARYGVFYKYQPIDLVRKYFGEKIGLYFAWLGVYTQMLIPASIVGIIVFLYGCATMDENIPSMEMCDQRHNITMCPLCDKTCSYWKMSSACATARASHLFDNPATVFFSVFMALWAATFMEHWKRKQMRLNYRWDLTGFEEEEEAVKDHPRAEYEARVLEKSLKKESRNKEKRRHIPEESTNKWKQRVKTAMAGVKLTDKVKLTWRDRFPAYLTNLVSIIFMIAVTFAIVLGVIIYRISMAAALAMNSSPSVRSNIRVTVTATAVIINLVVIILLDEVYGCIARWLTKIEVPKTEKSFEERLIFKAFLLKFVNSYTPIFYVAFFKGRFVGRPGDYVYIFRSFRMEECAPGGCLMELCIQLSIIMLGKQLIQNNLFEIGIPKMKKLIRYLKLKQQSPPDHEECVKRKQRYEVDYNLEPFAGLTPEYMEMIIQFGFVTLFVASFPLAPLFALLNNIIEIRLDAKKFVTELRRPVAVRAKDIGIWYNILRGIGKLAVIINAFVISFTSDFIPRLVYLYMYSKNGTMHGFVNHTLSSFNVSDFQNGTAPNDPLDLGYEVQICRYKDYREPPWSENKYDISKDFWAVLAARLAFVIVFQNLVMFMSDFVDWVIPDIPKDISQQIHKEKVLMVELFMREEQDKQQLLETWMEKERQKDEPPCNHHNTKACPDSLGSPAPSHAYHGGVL
ANO1 del476-501/F628A: Anoctamin-1 (ANO1, Homo sapiens, UniProt Q5XXA6, del476-501/F628A)
For Anoctamin-1 (ANO1, Homo sapiens, UniProt Q5XXA6, del476-501/K629A); inside-out patch clamp; 10 µM, membrane voltage -60 mV: normalized current read -0.323.
For TMEM16A (human) K603A/E623A; inside-out patch clamp; 10 µM, membrane voltage 0 mV: normalized current read -0.0027.
For human TMEM16A K603A/E623A; inhibitor, inside-out patch clamp; 10 µM, at -100 mV: normalized current read -0.4.
For ANO1 del476-501/E649A/R541A; inside-out patch clamp; 10 µM, membrane voltage -60 mV: normalized current read -0.259.
ANO1 del476-501/F628A; whole-cell voltage clamp; 30 µM, I-V at -100 mV, together with: 4 µM Ca2+ — normalized current: -0.458.
It gave 0.389 for normalized current (ANO1 del476-501/F628A; whole-cell voltage clamp; 30 µM, concentration-response at 80 mV, together with: 4 µM Ca2+).
Anoctamin-1 (ANO1, Homo sapiens, UniProt Q5XXA6, del476-501); whole-cell voltage clamp; 30 µM, wild type, concentration-response at 40 mV, together with: 4 µM Ca2+ — normalized current: 0.0253.
The normalized current was 0.463 (ANO1 del476-501/F628A; whole-cell voltage clamp; 30 µM, concentration-response at 100 mV, together with: 4 µM Ca2+).
For ANO1 del476-501/E649A/R541A; inside-out patch clamp; 10 µM, membrane voltage 60 mV: normalized current read 0.357.
ANO1 del476-501/F628A; whole-cell voltage clamp; 100 µM, concentration-response at 80 mV, together with: 4 µM Ca2+ — normalized current: 0.124.
For Anoctamin-1 (ANO1, Homo sapiens, UniProt Q5XXA6, del476-501/E659A/K629A); inside-out patch clamp; 10 µM, membrane voltage 100 mV: normalized current read 0.823.
ANO1 del476-501/F628A; whole-cell voltage clamp; 3 µM, I-V at 60 mV, together with: 4 µM Ca2+ — normalized current: 0.485.

Set 4
Compound: COc1cccc(-c2cc(=O)c3ccccc3o2)c1N
Read-out: enzyme activity
Mode: inhibitor
Concentration: 0.5 µM
Baseline: control
KIT (Homo sapiens, UniProt P10721) — remaining activity: 92.2%.
For MKNK2 (Homo sapiens, UniProt Q9HBH9): remaining activity read 108%.
The remaining activity was 97.4% (STK38 (Homo sapiens, UniProt Q15208)).
The remaining activity was 93.4% (NEK4 (Homo sapiens, UniProt P51957)).
It gave 81.7% for remaining activity (MAP4K2 (Homo sapiens, UniProt Q12851)).
It gave 95.5% for remaining activity (MAPK12 (Homo sapiens, UniProt P53778)).
For CHEK1 (Homo sapiens, UniProt O14757): remaining activity read 103%.
PLK2 (Homo sapiens, UniProt Q9NYY3) — remaining activity: 92.5%.
CSNK1A1 (Homo sapiens, UniProt P48729) — remaining activity: 95.6%.
The remaining activity was 101% (AKT3 (Homo sapiens, UniProt Q9Y243)).
For Cyclin-dependent kinase 9, with cyclin T1 (CDK9, Homo sapiens, UniProt P50750): remaining activity read 93.6%.
MAP2K6 (Homo sapiens, UniProt P52564) — remaining activity: 92.4%.

For quick reference, copied from above (set 1):
For `O=c1ccc2ccc(O)c(O)c2o1`, the inhibition was 25.9%.
The inhibition of `O=C(CSc1ccc2nnc(-c3cccc(F)c3)n2n1)Nc1cccc(F)c1` is reported as 7.9%.
`CC(C)OC(=O)c1ccc(NC(=O)Nc2ccc(Cl)c(Cl)c2)cc1` gave an inhibition of 12%.
For `CCCNC(=O)Nc1ccc(Oc2ncnc3cc(OC)c(OC)cc23)cc1Cl`, the inhibition was 9.75%.
For `C[S+]([O-])c1ccc(CSc2nc(-c3ccc(F)cc3)c(-c3ccncc3)[nH]2)cc1` (stereo not drawn), the inhibition was 14.2%.
`CC(CCl)=C(C#N)c1nc2ccccc2s1` gave an inhibition of 21.6%.
`CC(C)CCN1c2nc(Nc3cc(F)c(O)c(F)c3)ncc2N(C)C(=O)C1C` (stereo not drawn) has an inhibition of 99.3%.
`COc1ccc(-c2nnc3ccc(SCC(=O)Nc4cc(C)on4)nn23)cc1OC` has an inhibition of 12.7%.
